Published values of several laboratories.
Each numbered part is a random draw from the data of one study; scales do not carry over between parts. Values joined by “and” are separate records of one study, mostly repeats; a detail may differ.

Series 1 — organism: Arabidopsis thaliana; strain: Col-0
Structure (SMILES): CC(C)=CCN1C(=O)C(O)(C(=O)O)Oc2cc(F)ccc21 (centres unmarked)
12.5 µg/mL, seed germination, repetition mean — hypocotyl length: 2 cm.
For 25 µg/mL, seed germination, single repetition: hypocotyl length read 1.9 cm and 1.87 cm and 1.81 cm and 1.83 cm and 1.82 cm.
The hypocotyl length was 1.82 cm (50 µg/mL, seed germination, repetition mean).
The hypocotyl length was 2.01 cm and 1.95 cm and 1.98 cm and 2.05 cm and 2.03 cm (12.5 µg/mL, seed germination, single repetition).
3.125 µg/mL, seed germination, repetition mean — hypocotyl length: 2.12 cm.
It gave 1.98 cm and 2.06 cm and 2 cm and 2.01 cm and 2.05 cm for hypocotyl length (6.25 µg/mL, seed germination, single repetition).
100 µg/mL, seed germination, single repetition — hypocotyl length: 1.42 cm and 1.4 cm and 1.43 cm and 1.48 cm.
25 µg/mL, seed germination, repetition mean — hypocotyl length: 1.84 cm.

Series 2
SMILES: Cc1ccc(O)c(C)c1-c1cnc2[nH]c(-c3cnc(N4CCC5(CC4)CC(N4CCN(c6ccc(N[C@H]7CCC(=O)NC7=O)cc6F)CC4)CO5)nc3)cc2c1C#N (single isomer, unassigned)
PKMYT1: Membrane-associated tyrosine- and threonine-specific cdc2-inhibitory kinase (PKMYT1, Homo sapiens, UniProt Q99640)
UniProt Q99640, sequence (whole entry, looked up): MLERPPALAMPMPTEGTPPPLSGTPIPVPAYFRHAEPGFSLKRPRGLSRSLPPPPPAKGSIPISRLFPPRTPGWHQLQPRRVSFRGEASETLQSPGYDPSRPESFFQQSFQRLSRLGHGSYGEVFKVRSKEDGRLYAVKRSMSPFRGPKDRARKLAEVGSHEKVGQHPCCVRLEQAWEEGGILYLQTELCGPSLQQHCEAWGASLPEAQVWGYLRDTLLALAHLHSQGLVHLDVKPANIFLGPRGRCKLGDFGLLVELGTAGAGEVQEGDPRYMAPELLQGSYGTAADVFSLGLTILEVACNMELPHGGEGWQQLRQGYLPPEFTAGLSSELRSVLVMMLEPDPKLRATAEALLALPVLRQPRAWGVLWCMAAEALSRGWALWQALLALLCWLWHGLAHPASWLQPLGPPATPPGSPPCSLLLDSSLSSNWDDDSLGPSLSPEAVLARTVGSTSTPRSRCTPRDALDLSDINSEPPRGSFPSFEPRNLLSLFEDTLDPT
The inhibition was 25.6% and 40.3% and 63.2% and 51.7% and 23.7% and 53.6% (automated immunoblotting, refers to: CDK1 phospho-Thr14; mouse, HCC1569 xenograft, tumour; dose not given, 144 h).
PKMYT1; binding, HTRF; 10000 nM — inhibition: 99.5% and 101%.
For LN-229; cell proliferation; 10000 nM: inhibition read 89.2%.
It gave 7.26% and 12.8% for inhibition (PKMYT1; binding, HTRF; 0.51 nM).
It gave 0.42% and -5.8% and -3.91% for inhibition (MDA-MB-436; cell proliferation; 1.52 nM).
The inhibition was 14.4% (HCC1569; CDK1 phosphorylation, Jess capillary immunoassay, refers to: CDK1 phospho-Thr14; 1 nM, 24 h).
It gave 94.7% and 93% for inhibition (PKMYT1; binding, HTRF; 41.15 nM).
For KLE; cell proliferation; 1111.11 nM: inhibition read 84.2%.
HCC1569; cell proliferation; 3333.33 nM — inhibition: 92.9%.

Series 3 — cell line: U-87 MG; tested at: concentration not given; baseline: DMSO
SMILES: CCN1/C(=C/C=C2\CCCC(/C=C/C3=[N+](CC)c4ccccc4C3(C)C)=C2NCCCCCCCCN2CCC(Nc3nc4ccccc4n3Cc3ccc(F)cc3)CC2)C(C)(C)c2ccccc21
The “log2 fold change” was -2.03 (refers to: AMOTL2 mRNA).
The “log2 fold change” was -1.27 (refers to: AXL mRNA).
The “log2 fold change” was 2.32 (refers to: RAB39B mRNA).
For refers to: ARHGAP44 mRNA: “log2 fold change” read -2.68.
refers to: IRS1 mRNA — “log2 fold change”: -1.61.
refers to: IRF1 mRNA — “log2 fold change”: 1.54.
It gave 1.29 for “log2 fold change” (refers to: WARS1 mRNA).
It gave -3.55 for “log2 fold change” (refers to: OLFML2B mRNA).
It gave -1.68 for “log2 fold change” (refers to: SUN2 mRNA).
For refers to: TNFAIP8L1 mRNA: “log2 fold change” read -1.31.
It gave 1.32 for “log2 fold change” (refers to: SLIT3 mRNA).
refers to: SGCG mRNA — “log2 fold change”: 2.19.
For refers to: NR0B1 mRNA: “log2 fold change” read -1.13.
refers to: DACT1 mRNA — “log2 fold change”: 1.2.

Mixed results
Cc1nc(C)c(C=[N+]([O-])C(C)(C)C)nc1C has a pSer473-Akt/total Akt of 173 and 139 and 140 and 159 (Western blot; MPTP mouse model; 30 mg/kg).

For quick reference, copied from above (mixed results):
Cc1nc(C)c(C=[N+]([O-])C(C)(C)C)nc1C has a pSer473-Akt/total Akt of 173 and 139 and 140 and 159 (Western blot; MPTP mouse model; 30 mg/kg).
